Published values pooled from the literature.
Numbered parts are unrelated; each lists some results of a single study.

Set 1 — method: RNA Bind-n-Seq; molecule type: RNA; matrix: in vitro; tested at: 200 nM; notes: whole 134-nt RNA, ends assumed; added: 150 mM LiCl; baseline: input library; reading: higher = stronger binding; endpoint: log2 enrichment; all molecules: 7-deaza-guanosine replaces G
Target: Ras GTPase-activating protein-binding protein 1, full length (G3BP1, Homo sapiens, UniProt Q13283)
Sequence of UniProt Q13283 (whole entry, looked up): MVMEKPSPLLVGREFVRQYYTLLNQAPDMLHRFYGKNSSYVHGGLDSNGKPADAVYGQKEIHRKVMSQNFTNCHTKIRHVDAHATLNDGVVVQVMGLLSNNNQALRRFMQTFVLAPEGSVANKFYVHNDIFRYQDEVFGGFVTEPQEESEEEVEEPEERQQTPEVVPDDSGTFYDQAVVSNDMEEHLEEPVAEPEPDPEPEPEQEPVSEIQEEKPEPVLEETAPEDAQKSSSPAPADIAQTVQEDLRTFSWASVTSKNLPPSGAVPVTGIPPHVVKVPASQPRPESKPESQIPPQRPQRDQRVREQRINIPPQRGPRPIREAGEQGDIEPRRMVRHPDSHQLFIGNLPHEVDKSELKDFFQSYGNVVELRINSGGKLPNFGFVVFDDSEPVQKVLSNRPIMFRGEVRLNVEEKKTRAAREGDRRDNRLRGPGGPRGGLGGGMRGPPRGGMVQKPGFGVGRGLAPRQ
All sequences stand within: GGGAGUUCUACAGUCCGACGAUC … UGGAAUUCUCGGGUGUCAAGG
UCAAGUCCUGUGCUACACAUCGUAUGUACCGAAUCGGGGUUUGGUUUGGGUUUGGAAAGUAUUAUGUUACGCCGUUCGGAUCUGCACUUC: -0.461
UAAGAAGGAAAUUGAGAGGAGAAAAACUGGAAAAGAAAUGUUGGAUUAUAAAAGAAAACAAGAAGAAGAAUUAACAAAAAGAAUGCUGGA: -0.96
GUCCUGUGCUACACAUCGUAUGUACCGAAUCGGGAAAGGGAAAAAAAGGGAAAAAGGGAAAGUAUUAUGUUACGCCGUUCGGAUCUGCAC: -0.0185
CACAGACAACACGCACGCACACAGACACAGAGGGAAGGGGUUGGGAUGGGGACAGGGUGCACAGCAGGGCGGGGUAGGACCCCAGCCCCU: 0.159
UUCUUUGCCCAACGGGGCCGUGGAUACCUGCCUUUUAAUUCUUUUUUAUUCGCCCAUCGGGGCCGCGGAUACCUGCUUUUUAUUUUUUUU: 1.13
UCCUCAAGUCCUGUGCUACACAUCGUAUGUACCGAAUCGGCGGGGCGGCGGAAAGUAUUAUGUUACGCCGUUCGGAUCUGCACUUCCAGC: 0.772
CAAGUCCUGUGCUACACAUCGUAUGUACCGAAUCGGGGUUUGGGGAGGGGAGGGGAAAGUAUUAUGUUACGCCGUUCGGAUCUGCACUUC: 0.496

Set 2 — method: protein binding microarray; molecule type: double-stranded DNA, one strand shown; matrix: in vitro; tested at: not given; baseline: not given; reading: higher = stronger binding; endpoint: E-score
Target: Histone acetyltransferase KAT6A, winged helix 2, GST fusion (KAT6A, Homo sapiens, UniProt Q92794, residues 85-181)
Notes: 8-mer, flanks averaged, mean of 2 arrays, mostly near background
Construct (chain): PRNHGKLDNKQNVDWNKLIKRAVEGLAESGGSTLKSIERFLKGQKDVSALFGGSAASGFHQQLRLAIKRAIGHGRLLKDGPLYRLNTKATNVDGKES
AGGGATCC: -0.105
ACGGGTCG: 0.12
ACGGGACG: 0.0189
AGCGTGGA: -0.0532
TAACGCAA: 0.0247
CGTCTTCC: -0.111
CGTAGGTC: -0.0816
ACAAATTG: -0.0806
CAGCACCG: 0.0265
AGGTGCAT: -0.0759
AGAGGGCT: -0.0546
GTTATGGA: -0.0326
ACTGTCCG: 0.0486
AGACGCCA: -0.0144
CACAAAGA: 0.0876

Set 3 — method: RNA Bind-n-Seq; molecule type: RNA; matrix: in vitro; tested at: 365 nM; baseline: no-protein control; reading: higher = stronger binding; endpoint: RBNS enrichment (R)
Target: RNA binding protein fox-1 homolog 2, RRM domain, GST-SBP tag (RBFOX2, Homo sapiens, UniProt O43251-10, residues 100-194)
Notes: natural RNA segment, single round, ends assumed
All sequences stand within: GGGAGUUCUACAGUCCGACGAUC … UGGAAUUCUCGGGUGCCAA
Residues (chain): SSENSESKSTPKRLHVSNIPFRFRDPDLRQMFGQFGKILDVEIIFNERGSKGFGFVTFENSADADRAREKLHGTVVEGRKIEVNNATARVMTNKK
AAGUCUUUUAUUUGUGGCAAUUUUGCCUUAGUAGGCGCUUGGCGUAGUUUCUAUUUUAUAGAAUAUUUAGUCUGAGAAGUUAAAGAAACUAGACCUAGGAUCUCAAAAGU: 0.4
AAGGAAAUAAAGGUAAAAUCACUUCAGAUCUCUAAUUAUCAAGCGAAGCUUUUAUUGUUACACUUCUUACCCUCUUUCAUAUCCAAAAUUGCCAAGUGCCUCUGCAGACU: 0.399
ACAGACUAAAUGUGCAAGCACCUUGAAGUGUGAGAACCUGUCCCCUCCUUAGCUCUCCUUGUCUUUGCUGUUGGUUGGUUAUUUCCUGCUUUGUGUCUGUUCUGAGCUGU: 0.972
AUGCUAUUGGGAAACCUCUUCUCCGUGACACAGAAUGUUCUGGGUGGGAGCCGCCCUUCUUCAUCUUAGAGAACCAAGUGCCUCCUGUCUGAAAGGUGAGGGUGGCCUGA: 0.219
AUGAGAACUUACCAGCAGAAAUCCUUGUUCCUAAGCUACAGAAUGACCAAAAGCUGUCAAGUCCUUAAUGUUUAGAAACUCCUUAAAAUGUAUAGUAUUUUAGAACAACA: 0.576
GUAGCAAAUUGGUUCUGAAUUAUGCAACUGUUUGCUAUUUAGUAAACUAGCAAAUGAUGCAUGUAUUUUGUUUUUCAUGUACUGGGCAAUAUGAGUAAAAUCUGUCCCUU: 0.513
AGUAAUUGGCCUUUCUGAGCUGAUUUUUCCAUCUUUUGUAAUUAUCUUUAUUAAAAAAUUGUACUUGAUUAUCUUUUGUCUGUUUAUUACUACAAUAUGAAGUCUUGUUU: 1.13
AAAGCUUAGCCUAGCAGUCAGUGACUUACUUGCACUUUUUGCACAUAGAUAUAAAGUAAAAUUAUGUUAUUAAUUUGGUUUAGUCUGUAAUAUUACACAGUAAUGGUAAU: 0.356
CUGUGGGGGCCUGCCCACUCCAUGGCAGUGCCCUGAAGGAGUCAGACUACCAUGGCAUCGCAGGCCCAGAGGGCAGACAUUUUUUCUAGUUUUUAAUUGGGGUGUGGGAG: 0.337

Other studies, line by line
PhoQ, residues 284 288 289 292 302 303 ASSHFY — fold induction (PhoP, residues 12 14 15 18 19 NQFFI (Escherichia coli, UniProt P23836); Sort-seq, refers to: YFP reporter; E. coli; PhoQ-PhoP variant library, added: 10 µM Mg2+; baseline: high Mg2+ state, higher = stronger signaling): 3.59

Some of these lines once more (set 1):
GUCCUGUGCUACACAUCGUAUGUACCGAAUCGGGAAAGGGAAAAAAAGGGAAAAAGGGAAAGUAUUAUGUUACGCCGUUCGGAUCUGCAC: -0.0185
CACAGACAACACGCACGCACACAGACACAGAGGGAAGGGGUUGGGAUGGGGACAGGGUGCACAGCAGGGCGGGGUAGGACCCCAGCCCCU: 0.159
UUCUUUGCCCAACGGGGCCGUGGAUACCUGCCUUUUAAUUCUUUUUUAUUCGCCCAUCGGGGCCGCGGAUACCUGCUUUUUAUUUUUUUU: 1.13
